Measurements gathered from unrelated publications.
Each line is one published result; not all experiments were run side by side. Several values in a cell are separate wells, animals, samples, runs or records. ± gives the spread as reported.
Tumor necrosis factor receptor superfamily member 9/Nectin-4: Tumor necrosis factor receptor superfamily member 9/Nectin-4 (Homo sapiens, UniProt Q07011+Q96NY8)
UniProt Q96NY8, sequence (whole entry, looked up): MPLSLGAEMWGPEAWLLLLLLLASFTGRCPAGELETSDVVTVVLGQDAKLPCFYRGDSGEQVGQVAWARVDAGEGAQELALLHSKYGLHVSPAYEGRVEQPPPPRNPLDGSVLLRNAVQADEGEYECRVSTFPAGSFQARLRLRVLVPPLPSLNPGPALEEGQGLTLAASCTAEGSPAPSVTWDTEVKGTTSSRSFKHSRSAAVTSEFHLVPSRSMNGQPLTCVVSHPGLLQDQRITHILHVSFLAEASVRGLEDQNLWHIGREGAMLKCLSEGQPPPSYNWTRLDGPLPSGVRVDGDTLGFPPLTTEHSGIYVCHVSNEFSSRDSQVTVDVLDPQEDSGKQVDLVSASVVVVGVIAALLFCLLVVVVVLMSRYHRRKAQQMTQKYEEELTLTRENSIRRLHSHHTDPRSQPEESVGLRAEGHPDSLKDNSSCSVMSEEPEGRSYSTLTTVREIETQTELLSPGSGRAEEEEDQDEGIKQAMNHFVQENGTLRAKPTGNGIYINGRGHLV
UniProt Q07011, sequence (whole entry, looked up): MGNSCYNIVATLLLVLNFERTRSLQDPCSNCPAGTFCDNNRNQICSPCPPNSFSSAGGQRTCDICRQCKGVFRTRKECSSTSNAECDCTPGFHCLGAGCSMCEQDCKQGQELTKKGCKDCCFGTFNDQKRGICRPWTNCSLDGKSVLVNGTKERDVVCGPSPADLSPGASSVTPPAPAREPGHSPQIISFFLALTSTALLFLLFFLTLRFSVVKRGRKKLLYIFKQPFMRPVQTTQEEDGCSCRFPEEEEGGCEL
T1: ssDNA, aptamer; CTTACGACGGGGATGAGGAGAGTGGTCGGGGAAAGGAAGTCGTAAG
UniProt P51575, sequence (whole entry, unmodified, looked up): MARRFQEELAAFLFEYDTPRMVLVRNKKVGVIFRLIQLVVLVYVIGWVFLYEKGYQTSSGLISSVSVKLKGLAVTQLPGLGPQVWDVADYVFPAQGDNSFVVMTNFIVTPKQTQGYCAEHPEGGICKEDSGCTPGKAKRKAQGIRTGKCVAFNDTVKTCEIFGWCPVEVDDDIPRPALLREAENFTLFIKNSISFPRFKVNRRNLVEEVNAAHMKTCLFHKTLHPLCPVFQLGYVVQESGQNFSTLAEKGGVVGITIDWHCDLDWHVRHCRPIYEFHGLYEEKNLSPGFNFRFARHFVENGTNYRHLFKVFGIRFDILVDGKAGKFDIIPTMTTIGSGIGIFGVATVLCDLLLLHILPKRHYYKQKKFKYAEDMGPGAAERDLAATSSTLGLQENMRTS
UniProt O75762, sequence (whole entry, looked up): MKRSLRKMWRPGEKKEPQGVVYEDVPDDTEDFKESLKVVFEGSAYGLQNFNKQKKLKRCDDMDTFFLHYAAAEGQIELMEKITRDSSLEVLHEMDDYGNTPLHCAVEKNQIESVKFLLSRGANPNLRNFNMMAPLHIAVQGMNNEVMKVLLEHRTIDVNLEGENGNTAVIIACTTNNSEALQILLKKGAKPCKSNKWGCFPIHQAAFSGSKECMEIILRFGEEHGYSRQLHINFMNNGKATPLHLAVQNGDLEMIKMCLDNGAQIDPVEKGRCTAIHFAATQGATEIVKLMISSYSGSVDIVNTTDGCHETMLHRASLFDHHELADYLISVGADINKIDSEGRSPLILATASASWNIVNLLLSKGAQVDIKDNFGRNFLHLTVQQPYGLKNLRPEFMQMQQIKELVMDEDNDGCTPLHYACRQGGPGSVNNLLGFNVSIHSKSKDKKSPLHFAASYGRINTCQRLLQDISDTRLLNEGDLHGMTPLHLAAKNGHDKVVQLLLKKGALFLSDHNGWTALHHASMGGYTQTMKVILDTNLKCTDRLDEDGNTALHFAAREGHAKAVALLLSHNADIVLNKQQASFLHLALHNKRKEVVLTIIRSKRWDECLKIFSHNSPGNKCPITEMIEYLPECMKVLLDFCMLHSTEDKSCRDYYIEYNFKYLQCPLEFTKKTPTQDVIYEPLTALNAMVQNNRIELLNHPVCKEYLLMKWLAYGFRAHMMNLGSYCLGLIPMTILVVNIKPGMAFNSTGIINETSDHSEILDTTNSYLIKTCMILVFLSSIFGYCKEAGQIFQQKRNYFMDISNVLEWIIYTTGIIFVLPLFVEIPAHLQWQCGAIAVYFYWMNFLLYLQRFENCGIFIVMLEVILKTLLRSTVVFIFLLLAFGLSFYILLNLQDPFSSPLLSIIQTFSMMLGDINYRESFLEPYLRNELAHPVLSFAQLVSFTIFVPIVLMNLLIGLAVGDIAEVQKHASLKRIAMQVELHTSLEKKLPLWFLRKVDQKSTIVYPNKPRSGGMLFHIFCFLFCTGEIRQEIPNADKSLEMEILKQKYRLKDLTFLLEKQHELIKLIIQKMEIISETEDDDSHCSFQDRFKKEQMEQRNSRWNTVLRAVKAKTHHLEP
UniProt Q16774, sequence (whole entry, looked up): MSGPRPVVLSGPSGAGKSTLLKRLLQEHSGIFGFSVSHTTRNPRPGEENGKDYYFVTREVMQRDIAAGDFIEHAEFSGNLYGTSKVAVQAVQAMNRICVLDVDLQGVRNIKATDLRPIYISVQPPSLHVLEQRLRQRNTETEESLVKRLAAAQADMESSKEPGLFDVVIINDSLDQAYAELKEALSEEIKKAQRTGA
UniProt P22736, sequence (whole entry, looked up): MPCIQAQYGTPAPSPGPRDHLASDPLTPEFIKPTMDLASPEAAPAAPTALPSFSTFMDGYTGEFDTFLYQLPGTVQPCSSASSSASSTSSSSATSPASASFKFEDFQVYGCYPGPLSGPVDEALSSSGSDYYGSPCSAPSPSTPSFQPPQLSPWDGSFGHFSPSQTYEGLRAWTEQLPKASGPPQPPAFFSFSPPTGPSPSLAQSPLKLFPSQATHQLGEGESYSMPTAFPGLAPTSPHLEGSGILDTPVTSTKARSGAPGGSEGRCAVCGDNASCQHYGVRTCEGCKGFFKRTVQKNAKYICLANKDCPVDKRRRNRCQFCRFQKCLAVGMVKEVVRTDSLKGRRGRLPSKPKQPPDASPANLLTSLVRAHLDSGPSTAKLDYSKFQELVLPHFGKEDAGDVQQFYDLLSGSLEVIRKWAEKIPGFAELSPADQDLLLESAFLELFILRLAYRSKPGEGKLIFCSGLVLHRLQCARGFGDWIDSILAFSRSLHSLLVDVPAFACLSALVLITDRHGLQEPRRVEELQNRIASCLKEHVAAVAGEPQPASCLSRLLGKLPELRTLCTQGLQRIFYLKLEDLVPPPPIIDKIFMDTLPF
UniProt Q8NER1, sequence (whole entry, unmodified, looked up): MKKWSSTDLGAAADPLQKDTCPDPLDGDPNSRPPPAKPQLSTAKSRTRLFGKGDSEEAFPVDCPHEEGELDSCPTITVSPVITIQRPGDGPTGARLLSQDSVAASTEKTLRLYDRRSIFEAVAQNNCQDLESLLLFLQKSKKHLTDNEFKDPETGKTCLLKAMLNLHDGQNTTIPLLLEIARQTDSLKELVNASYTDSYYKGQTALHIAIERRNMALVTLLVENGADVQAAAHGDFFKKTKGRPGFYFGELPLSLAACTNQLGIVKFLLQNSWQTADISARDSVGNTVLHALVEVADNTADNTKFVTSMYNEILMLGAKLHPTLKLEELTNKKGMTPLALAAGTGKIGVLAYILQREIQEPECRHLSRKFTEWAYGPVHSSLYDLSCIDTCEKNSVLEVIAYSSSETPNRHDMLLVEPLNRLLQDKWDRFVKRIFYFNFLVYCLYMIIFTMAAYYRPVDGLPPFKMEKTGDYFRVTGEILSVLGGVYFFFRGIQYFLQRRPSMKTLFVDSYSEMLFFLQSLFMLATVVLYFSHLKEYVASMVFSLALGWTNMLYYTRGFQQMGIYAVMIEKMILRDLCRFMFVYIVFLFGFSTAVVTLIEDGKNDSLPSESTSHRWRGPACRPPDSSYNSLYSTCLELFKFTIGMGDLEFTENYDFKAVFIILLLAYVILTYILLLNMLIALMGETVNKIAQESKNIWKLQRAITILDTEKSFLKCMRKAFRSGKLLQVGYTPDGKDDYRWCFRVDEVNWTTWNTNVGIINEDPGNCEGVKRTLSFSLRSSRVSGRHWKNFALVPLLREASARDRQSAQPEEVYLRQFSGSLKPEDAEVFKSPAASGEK
UniProt Q92499, sequence (whole entry, looked up): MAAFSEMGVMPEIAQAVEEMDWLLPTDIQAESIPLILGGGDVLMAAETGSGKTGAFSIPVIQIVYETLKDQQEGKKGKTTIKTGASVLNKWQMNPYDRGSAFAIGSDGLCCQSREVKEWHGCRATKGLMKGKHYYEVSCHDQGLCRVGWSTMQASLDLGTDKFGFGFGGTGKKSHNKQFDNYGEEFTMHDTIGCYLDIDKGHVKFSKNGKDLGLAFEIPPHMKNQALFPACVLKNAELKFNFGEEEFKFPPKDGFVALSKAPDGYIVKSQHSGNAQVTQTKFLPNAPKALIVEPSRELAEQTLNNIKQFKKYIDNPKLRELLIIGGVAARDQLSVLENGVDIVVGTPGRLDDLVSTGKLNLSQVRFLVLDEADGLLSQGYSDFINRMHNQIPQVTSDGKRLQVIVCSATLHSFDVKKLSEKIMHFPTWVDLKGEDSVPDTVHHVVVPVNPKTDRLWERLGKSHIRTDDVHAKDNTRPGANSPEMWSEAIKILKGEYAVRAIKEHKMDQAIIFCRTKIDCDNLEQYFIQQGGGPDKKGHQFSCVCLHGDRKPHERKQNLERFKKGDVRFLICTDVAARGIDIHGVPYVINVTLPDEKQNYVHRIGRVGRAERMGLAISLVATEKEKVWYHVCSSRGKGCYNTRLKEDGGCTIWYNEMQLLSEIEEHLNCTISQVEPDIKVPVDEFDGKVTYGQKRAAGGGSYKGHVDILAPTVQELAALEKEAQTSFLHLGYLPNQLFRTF
UniProt P48729, sequence (whole entry, looked up): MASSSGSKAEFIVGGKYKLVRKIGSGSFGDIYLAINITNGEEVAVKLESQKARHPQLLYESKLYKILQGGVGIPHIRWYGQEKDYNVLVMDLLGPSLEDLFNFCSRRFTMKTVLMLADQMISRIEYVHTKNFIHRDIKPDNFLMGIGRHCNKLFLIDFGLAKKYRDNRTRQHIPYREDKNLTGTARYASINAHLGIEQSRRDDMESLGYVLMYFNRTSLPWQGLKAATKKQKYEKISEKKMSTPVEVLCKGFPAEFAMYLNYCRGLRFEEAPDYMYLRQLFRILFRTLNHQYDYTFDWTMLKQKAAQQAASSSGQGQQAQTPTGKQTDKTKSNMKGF

| Compound | target | test | system | conditions | scale | endpoint | result |
| --- | --- | --- | --- | --- | --- | --- | --- |
| CC(=O)N[C@@H]1[C@@H](O[C@H]2O[C@H](CO)[C@H](O)[C@H](O)[C@H]2O)[C@@H](O)[C@@H](CO)O[C@@H]1O | Frizzled-8 (Xenopus laevis, UniProt Q91719) | binding, biolayer interferometry | – | 25 °C, together with: immobilized biotinylated carbohydrate | – | dissociation rate constant | 0.000527 s⁻¹ |
| O=c1nc(SCc2cc(F)cc(C(F)(F)F)c2)nc(SCc2ccc3nc(OCCN4CCOCC4)ccc3c2)[nH]1 | DNA topoisomerase 2-alpha (TOP2A, Homo sapiens, UniProt P11388) | DNA cleavage | – | 7.8 µM, replicate 1 | – | linear DNA | 0% |
| [Cl-].[Na+] | GUK1 (Homo sapiens, UniProt Q16774) | enzyme activity, NADH-coupled | – | 90 mM | – | reaction velocity | 0.00487 µM/s and 0.0126 µM/s and 0.0127 µM/s |
| CC(=O)Oc1ccc2c(=O)c(Oc3ccc(Cl)cc3)c(C(F)(F)F)oc2c1 | Sodium channel protein type 8 subunit alpha, C-terminal domain (SCN8A, Homo sapiens, UniProt Q9UQD0) | binder, thermal shift | – | 25 µM | – | delta Tm | 0.1 °C |
| COc1cc(CNC(=O)CCCC/C=C/C(C)C)ccc1O | Transient receptor potential cation channel subfamily V member 1 (TRPV1, Homo sapiens, UniProt Q8NER1, Y495Q) | agonist, outside-out patch clamp | – | Y495Q mutant | – | Hill coefficient | 1.1 |
| CC1=C(/C=C/C(C)=C/C=C/C(C)=C/C=O)C(C)(C)CCC1 | Rhodopsin (RHO, Bos taurus, UniProt P02699, I189P) | retinal entry, Trp FRET | lipid bicelles | 28 °C, I189P mutant | baseline: wild-type rhodopsin | relative kon | 9.9 ± 3.7 |
| Nc1ncnc2c1ncn2[C@@H]1O[C@H](COP(=O)(O)CP(=O)(O)OP(=O)(O)O)[C@@H](O)[C@H]1O | P2X purinoceptor 1 (P2RX1, Homo sapiens, UniProt P51575, K140A) | saturation binding | HEK293 | 1 nM | – | specific binding | 108 CCPM and 324 CCPM and 134 CCPM |
| CC(=O)N[C@H](C(=O)N1C[C@H](O)C[C@H]1C(=O)NCc1ccc(-c2scnc2C)cc1)C(C)(C)SCCCCCCNC(=O)C[C@@H]1N=C(c2ccc(Cl)cc2)c2c(sc(C)c2C)-n2c(C)nnc21 | VHL/BRD3, BD1; with Elongin B/C (Homo sapiens, UniProt P40337+Q15059) | ternary complex binding, ITC | – | 25 °C, together with: VHL-ElonginB-ElonginC titrated into compound:PROTAC:Brd3^BD1 complex | – | ΔG | -9.12 ± 0.01 kcal/mol |
| COc1cc(/C=C/c2ccc(O)cc2)cc(OC)c1 | O-methyltransferase (Sorghum bicolor, UniProt A0A1B6PFV1) | biolayer interferometry | – | together with: saturating SAH | baseline: apo protein | kon fold increase | 1.76 fold |
| CCCC[C@@H]1NC(=O)[C@H](Cc2ccc(O)cc2)NC(=O)[C@@H]2CCCN2C(=O)[C@H](CC(=O)O)NC(=O)[C@H](C)NC(=O)[C@H](Cc2ccccc2)NC(=O)[C@@H]2CSCCC(=O)N3CN(CN(C3)C(=O)CCSC[C@@H](C(=O)N[C@@H](C)C(N)=O)NC1=O)C(=O)CCSC[C@H](NC(C)=O)C(=O)N[C@@H](CC(C)(C)C)C(=O)N1CCC[C@H]1C(=O)N[C@@H](CCC(=O)O)C(=O)N[C@H](CCCCNC(=O)CCc1cn(CCOCCOCCOCCOCCOCCC(=O)N[C@H]3CSCCC(=O)N4CN5CN(C4)C(=O)CCSC[C@H](NC(=O)[C@@H](CCC(=O)O)NC(=O)[C@H](Cc4cccc6ccccc46)NC(=O)[C@@H]4CCCN4C3=O)C(=O)N[C@@H](CC(C)C)C(=O)N[C@@H](CCCCNC(=N)N)C(=O)N[C@@H](CC(=O)O)C(=O)N[C@@H](Cc3c[nH]c4ccccc34)C(=O)N[C@@H](CO)C(=O)N[C@@H]([C@@H](C)O)C(=O)N3CCC[C@H]3C(=O)N3C[C@H](O)C[C@H]3C(=O)N[C@@H](Cc3c[nH]c4ccccc34)C(=O)N[C@H](C(N)=O)CSCCC5=O)nn1)C(=O)N1CCC[C@H]1C(=O)N[C@@H](Cc1ccc(O)cc1)C(=O)N2 | Tumor necrosis factor receptor superfamily member 9/Nectin-4 | reporter gene, agonist | HT-1376 coculture with reporter cells | – | baseline: background | Emax | 41 fold |
| CNc1ccc(C(=O)OC)cc1-n1cnc(-c2ccc(C(F)(F)F)cc2)c1 | Toll-like receptor 1/2 (Homo sapiens, UniProt O60603+Q15399) | reporter gene, agonist | HEK-Blue hTLR2 | concentration not given | – | maximal activation | ≥ 50% |
| CC(=O)Nc1ccc(O)cc1 | Bromodomain-containing protein 4 (BRD4, Homo sapiens, UniProt O60885) | 19F NMR, item: tyrosine 97 | – | 95 µM | baseline: free protein | chemical shift change | -0.275 ppm |
| COc1ccc(Cc2nnc(NS(=O)(=O)c3ccc(C)cc3)s2)cc1 | Glutathione hydrolase 1 proenzyme, without transmembrane domain (Homo sapiens, UniProt P19440) | GSH hydrolysis, uncompetitive inhibitor | – | 37 °C, binds gamma-glutamyl enzyme, together with: GSH 5-20 µM | – | Kii | 506 ± 75 µM |
| CCCC[C@@H]1NC(=O)[C@H](Cc2ccc(O)cc2)NC(=O)[C@@H]2CCCN2C(=O)[C@H](CC(=O)O)NC(=O)[C@H](C)NC(=O)[C@H](Cc2ccccc2)NC(=O)[C@@H]2CSCCC(=O)N3CN(CN(C3)C(=O)CCSC[C@@H](C(=O)N[C@@H](CNC(=O)CCOCCOCCOCCOCCOCCn3cc(CCC(=O)N[C@H]4CSCCC(=O)N5CN6CN(C5)C(=O)CCSC[C@H](NC(=O)[C@@H](CC(=O)O)NC(=O)[C@H](Cc5cccc7ccccc57)NC(=O)[C@@H]5CCCN5C4=O)C(=O)N[C@@H](CCSC)C(=O)N[C@@H](CCCCNC(=N)N)C(=O)N[C@@H](CC(=O)O)C(=O)N[C@@H](Cc4c[nH]c5ccccc45)C(=O)N[C@@H](CO)C(=O)N[C@@H]([C@@H](C)O)C(=O)N4CCC[C@H]4C(=O)N4C[C@H](O)C[C@H]4C(=O)N[C@@H](Cc4c[nH]c5ccccc45)C(=O)N[C@H](C(N)=O)CSCCC6=O)nn3)C(N)=O)NC1=O)C(=O)CCSC[C@H](NC(C)=O)C(=O)N[C@@H](CC(C)(C)C)C(=O)N1CCC[C@H]1C(=O)N[C@@H](CCC(=O)O)C(=O)N[C@H](C)C(=O)N1CCC[C@H]1C(=O)N[C@@H](Cc1ccc(O)cc1)C(=O)N2 | Tumor necrosis factor receptor superfamily member 9/Nectin-4 | reporter gene, agonist | HT-1376 coculture with reporter cells | – | baseline: background | Emax | 31 fold |
| c1coc(-c2n[nH]cc2-c2ccnc3ccccc23)c1 | Serine/threonine-protein kinase CST20 (CST20, Candida albicans, UniProt P0CY24) | kinase binding, MIB/MS competition | Candida albicans lysate | 10 µM | baseline: DMSO, negative = stronger binding | log2 fold change | -0.78 |
| Cc1n[nH]c2ccc(-c3cc(OC[C@@H](N)Cc4ccccc4)cnc3-c3ccoc3)cc12 | Mitogen-activated protein kinase HOG1 (HOG1, Candida albicans, UniProt Q92207) | MIB/MS competition binding | Candida albicans cell lysate | 1 µM | baseline: DMSO, lower = stronger binding | log2 fold change | 0.244 |
| CC(=O)N[C@H](C(=O)N[C@@H](CC(N)=O)C(=O)N[C@@H](CCCCN)C(=O)N[C@@H](C)C(=O)N[C@@H](CC(C)C)C(=O)N1CCC[C@H]1C(=O)N[C@@H](C)C(=O)N[C@@H](CC(C)C)C(=O)N1CCC[C@H]1C(=O)N[C@H](C(=O)N[C@@H](C)C(N)=O)C(C)C)C(C)C | High osmolarity signaling protein SHO1, SH3 domain (SHO1, Saccharomyces cerevisiae, UniProt P40073) | binding, isothermal titration calorimetry | 50 mM sodium phosphate, 100 mM NaCl | concentration not given, pH 7.0, 25 °C | – | enthalpy change | -9.106 ± 0.0717 kcal/mol |
| Cc1cc2c(cc1N1C(=O)c3cccc4c(Cl)ccc(c34)C1=O)n(C)c(=O)n2C | Protein polybromo-1, bromodomain 4 (PBRM1, Homo sapiens, UniProt Q86U86) | binding, thermal shift | – | 10 µM | higher = stronger binding | thermal shift | -0.3 °C |
| C[C@H]1O[C@@H](O[C@H]2CC[C@@]3(C)[C@@H](CC[C@]4(C)[C@@H]3C=CC3=C5CC(C)(C)CC[C@]5(CO)[C@@H](O)C[C@]34C)[C@]2(C)CO)[C@H](O)[C@@H](O[C@@H]2O[C@H](CO)[C@@H](O)[C@H](O)[C@H]2O)[C@H]1O | NAD-dependent protein deacetylase sirtuin-1 (SIRT1, Homo sapiens, UniProt Q96EB6) | binding, microscale thermophoresis | – | 140 nM | – | MST normalised fluorescence | 884 a.u. |
| O=C1CCC(N2Cc3cc(Nc4noc5cc(F)ccc45)ccc3C2=O)C(=O)N1 (stereo not shown) | Cereblon/Casein kinase I alpha (CSNK1A1/CRBN, Homo sapiens, UniProt P48729+Q96SW2) | degrader, live-cell HiBiT kinetic | HEK293 LgBiT | 10 µM | – | degradation rate constant | 3.5 h⁻¹ |
| [Ca] | Transient receptor potential cation channel subfamily A member 1 (TRPA1, Homo sapiens, UniProt O75762) | ion current, two-electrode voltage clamp | Xenopus oocytes | 500 µM, -80 mV, together with: extracellular Ca2+ | baseline: current before Ca2+ addition | potentiation | 15.9 fold change and 3.97 fold change and 34.3 fold change and 5.72 fold change and 2.82 fold change and 0.167 fold change and 3.55 fold change |
| Nc1ncnc2c1ncn2[C@@H]1O[C@H](CO)[C@@H](O)[C@H]1O | T1, ssDNA, aptamer | ITC | – | – | – | Kd | 39.2 µM |
| N[C@@H](CC(=O)O)C(=O)O | Methyl-accepting chemotaxis protein, ligand-binding domain (Pectobacterium atrosepticum, UniProt Q6D6I9) | binding, thermal shift | – | ligand-binding domain | – | ΔTm | binds |
| COCCC(=O)N1CCC(Oc2ccccc2)C1 (stereo not shown) | ATP-dependent RNA helicase DDX1 (Homo sapiens, UniProt Q92499) | binding, affinity selection mass spectrometry | – | – | baseline: other proteins in batch | log fold enrichment | 0.108 |
| O=C(O)c1ccc(Nc2ncc3c(n2)-c2ccc(Cl)cc2C(c2c(F)cccc2F)=NC3)cc1 | MAPK1(h) | kinase activity | – | 1 µM | – | remaining activity | 91% |
| O=c1ccn([C@@H]2O[C@H](COP(=O)(O)OP(=O)(O)OP(=O)(O)O)[C@@H](O)[C@H]2O)c(=O)[nH]1 | DNA-directed RNA polymerase subunit beta' / DNA-directed RNA polymerase subunit beta (rpoC/rpoB, Escherichia coli, UniProt P0A8T7+P0A8V2) | RNA extension, rapid quench-flow | Escherichia coli, elongation complex, 6-MI template | 200 µM, 25 °C, fast complex fraction | – | nucleotide addition rate | 30 ± 1 s⁻¹ |
| CN1C(C(=O)Nc2ccccn2)=C(O)c2sc(Cl)cc2S1(=O)=O | Nuclear receptor subfamily 4 group A member 1 (NR4A1, Homo sapiens, UniProt P22736) | reporter gene, NBRE reporter full-length | – | 30 µM | baseline: vehicle | activation | 0.91 fold |
| c1ccc(OC[C@@H]2CN(CCN3CCc4ccccc43)CCO2)cc1 | 5-hydroxytryptamine receptor 2B (HTR2B, Homo sapiens, UniProt P41595) | radioligand binding | – | concentration not given, together with: [3H]LSD | – | inhibition | 70.5% |

A few entries again:
| Compound | target | test | system | conditions | scale | endpoint | result |
| --- | --- | --- | --- | --- | --- | --- | --- |
| CC(=O)Oc1ccc2c(=O)c(Oc3ccc(Cl)cc3)c(C(F)(F)F)oc2c1 | Sodium channel protein type 8 subunit alpha, C-terminal domain (SCN8A, Homo sapiens, UniProt Q9UQD0) | binder, thermal shift | – | 25 µM | – | delta Tm | 0.1 °C |
| COc1cc(CNC(=O)CCCC/C=C/C(C)C)ccc1O | Transient receptor potential cation channel subfamily V member 1 (TRPV1, Homo sapiens, UniProt Q8NER1, Y495Q) | agonist, outside-out patch clamp | – | Y495Q mutant | – | Hill coefficient | 1.1 |
